Experimental data collected from several papers.
Each numbered part is a random draw from the data of one study; scales do not carry over between parts. Positions count from the first letter of the parent shown.

Study 1
Target: FOSB, bZIP domain (human)
Technique: DHFR protein complementation
Matrix: yeast
Notes: single substitutions, most at no-binding floor
Baseline: wild-type JUN-FOS pair
Reading: higher = stronger binding
Starting sequence: JUN, bZIP domain (human); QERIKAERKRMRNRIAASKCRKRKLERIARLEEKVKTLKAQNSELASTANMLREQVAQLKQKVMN; partner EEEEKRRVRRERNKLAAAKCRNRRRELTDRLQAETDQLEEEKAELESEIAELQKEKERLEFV
Substitution	binding fitness [natural log]
E33C	-0.275
N42G	-1.14
T37L	0.0241
S47D	-0.00667
R30N	-0.115
Q55M	-0.256
L38V	-0.985
Q55V	-0.179
E44H	-0.178
S47E	0.0388
K34H	0.0519
T37W	-0.0679
E33Q	-0.275
L52A	-0.853
R53S	-0.685
K36E	-0.0625

Study 2
Target: Ras GTPase-activating protein-binding protein 1, full length (G3BP1, Homo sapiens, UniProt Q13283)
Chain of UniProt Q13283 (whole entry, looked up): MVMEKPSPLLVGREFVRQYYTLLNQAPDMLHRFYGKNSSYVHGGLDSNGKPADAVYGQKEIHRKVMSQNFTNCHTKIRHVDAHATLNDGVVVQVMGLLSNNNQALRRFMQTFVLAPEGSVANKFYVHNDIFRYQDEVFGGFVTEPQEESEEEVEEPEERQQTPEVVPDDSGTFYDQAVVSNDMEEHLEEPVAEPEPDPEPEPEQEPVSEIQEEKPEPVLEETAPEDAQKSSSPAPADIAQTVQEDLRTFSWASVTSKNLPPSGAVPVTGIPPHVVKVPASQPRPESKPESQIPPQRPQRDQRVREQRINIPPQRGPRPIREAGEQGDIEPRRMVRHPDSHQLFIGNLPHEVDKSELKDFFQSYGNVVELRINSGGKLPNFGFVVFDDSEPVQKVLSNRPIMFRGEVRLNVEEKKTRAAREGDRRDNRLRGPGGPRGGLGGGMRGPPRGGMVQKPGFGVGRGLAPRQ
Technique: RNA Bind-n-Seq
Molecule type: RNA
Matrix: in vitro
Tested at: 200 nM
Notes: whole 134-nt RNA, ends assumed
With: 150 mM LiCl
Baseline: input library
Reading: higher = stronger binding
Each molecule: 7-deaza-guanosine replaces G
Shared flanks, not repeated: GGGAGUUCUACAGUCCGACGAUC … UGGAAUUCUCGGGUGUCAAGG
Sequence	log2 enrichment
AGUCCUGUGCUACACAUCGUAUGUACCGAAUCGGGGCCCCCGGCCCCCGGGCCCCCGGAAAGUAUUAUGUUACGCCGUUCGGAUCUGCAC	-1.42
GCAGGAAGUAAAAACAAAGGGAAAUGCUUCGGAUAGUGGCAGGGGUGGGGGUUGCUAAGGAAAGGGUGGGAUGGGAGUGGGUAAAGAGUU	-0.494
UGGCCCUGGUGGCAUGCGGGGAGGAAGAGGUGGCCUCAUGGAUCGUUGUGGUCCCGGUGGAAUGUUCAGAGGUGGCCGUGGUGGAGACAG	0.423
UGGCCCUGGUGGCAUGCGGGGAGGAAGAGGUGGCCUCAUGGAUCGUGGUGGUCCCGGUGGAAUGUUCAGAGGUGGGCGUGGUGGAGACAG	-0.227
AGUCCUGUGCUACACAUCGUAUGUACCGAAUCGGGGAGGGGAAAAAAAGGGGAGGGGAAAGUAUUAUGUUACGCCGUUCGGAUCUGCACU	0.116
CAAGUCCUGUGCUACACAUCGUAUGUACCGAAUCGGAAAAGGAAAAGGGAAAAGGAAAGUAUUAUGUUACGCCGUUCGGAUCUGCACUUC	-0.557
UGGCCCUGGUGGCAUGCGGGGAGGAAGAGGUGGCCUCAUGGAUCGUGGUGGCCCCGGUGGAAUGUUCAGAGGUGGCCGUGGUGGAGACAG	0.3
CAAGUCCUGUGCUACACAUCGUAUGUACCGAAUCGGUUUUUGGAAAAAGGAAAGGAAAGUAUUAUGUUACGCCGUUCGGAUCUGCACUUC	-1.12
AGUCCUGUGCUACACAUCGUAUGUACCGAAUCAAAUUUAAAUUUUUAAAUUUUUAAAAAAGUAUUAUGUUACGCCGUUCGGAUCUGCACU	-2.97
CACAGACAACACGCAAAAACACAGACACAGAGGGAAGGGGUUGGGAUGGGGACAGGGUGCACAGCAGGGCGGGGUAGGACCCCAGCCCCU	0.498
GCAGGAAGUAAAAACAAAUGGAAAUGCUAAAGAUAGUGGCAGGGGUGGGGGUUGCUAAGGAAAGGGUGGGAUGGGAGUGGGUAAAGAGUU	0.405

Study 3
Target: CCND2, cyclin fold, Cln2 fusion (human)
Technique: yeast growth competition, sequencing
Matrix: yeast
Notes: weak parent motif
Baseline: not given
Reading: higher = stronger binding
Starting sequence: E2F1 docking peptide (human); PPVKRRLDLETDH; partner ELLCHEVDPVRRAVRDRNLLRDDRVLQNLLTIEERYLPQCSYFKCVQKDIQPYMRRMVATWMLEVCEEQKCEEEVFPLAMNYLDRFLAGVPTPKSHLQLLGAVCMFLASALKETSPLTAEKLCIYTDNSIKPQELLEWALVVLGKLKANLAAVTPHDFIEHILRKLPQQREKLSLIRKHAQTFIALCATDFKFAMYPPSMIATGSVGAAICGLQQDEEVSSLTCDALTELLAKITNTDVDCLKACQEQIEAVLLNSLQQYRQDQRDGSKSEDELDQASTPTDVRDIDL
Substitution	normalised enrichment score
D12Y	0.744
K4H	0.112
R6N	0.404
R5Q	0.35
D12V	-0.0995
P2I	0.13
H13V	0.272
H13Q	0.327
K4W	0.335
R5P	-0.465
K4P	-0.0902
R6F	0.427
H13G	0.266
P2C	-0.11
K4Q	0.439
R6S	-0.126
R5S	0.16
V3W	0.095
P1Y	0.729
T11I	-0.248
E10A	0.553
T11H	0.0183
D12W	0.0659
P2K	0.179
D8T	0.362

Study 4
Target: RNA binding protein fox-1 homolog 2, RRM domain, GST-SBP tag (RBFOX2, Homo sapiens, UniProt O43251-10, residues 100-194)
Technique: RNA Bind-n-Seq
Molecule type: RNA
Matrix: in vitro
Tested at: 365 nM
Notes: natural RNA segment, single round, ends assumed
Baseline: no-protein control
Reading: higher = stronger binding
Shared flanks, not repeated: GGGAGUUCUACAGUCCGACGAUC … UGGAAUUCUCGGGUGCCAA
Residues (chain): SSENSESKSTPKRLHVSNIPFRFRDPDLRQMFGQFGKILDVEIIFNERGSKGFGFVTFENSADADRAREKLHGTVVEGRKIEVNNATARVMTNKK
Sequence	RBNS enrichment (R)
CAGAGCACAUUAAAACCAAAGUCUGAUUGUUAAGCCUUUGACUCGGAUGUCUGUAGCAGUUCUAUGAAACAUUGCGUGUAAUGAUAGGGUAAAGAGAUUUCUAUAGAACG	6.42
UGUUUCAUUCACUGUGCACUUUGCUCAAAAUUUUAAAAAUACCAAUCACAAGGAUAAUAGAGUAGCCUAAAAUUACUAUUCUUGGUUCUUAUUUAAGUAUGGAAUAUUCA	0.535
CUGCUAUUCAUUAAAACUUGUAUUCCAGUCUUGCCAGCUUAAGGAGAUCAAGAUAUUAAGAGGUAUCCUUGAUUUAUUUUCCAGUAUUCAGUAGUAAAAUUUUCCUGUCC	0.868
GCCUUCAAAGAACGAUGAACUUAACCCCAGCUCCUGCCUUCCGACUUGGCUCCAGCCCCUUCUCCUACCACCUCUAUUUAUUAUACAUCAGGGUUGGAGUGGGGGUUGGU	0.46
GGUUUGGGUAUUGUGUUUCUGGUCUUUUAACUCAAAAUUAAGGUUUGAGCUUUAAUAGGACUAAAUUAUUCACCUGCCUUGGCCUGUGCCUUUAUUUUAAAUACUGCAAU	0.524
GUCUAAAGCAAUGAGGAGUUAUCACCUCAUCCUCAAACUCCAACAAGAUCUAUGCCUUAGUGUUGUUUUUGUUGUCUGCUUUGAUGUAAAAGCAAGAGUAUUUGGAGCAA	0.292
GCCUUAACCGAAGGCAACCUCUGCUCCAGAUGGAUGGUACCAGUAGCUUCUUAAUUCCAAUACUAAUUUGCUUUGCUGACCAAAUACCUGCCUGGUACCAGAAGACAGGG	0.302
CCUUAAGCCCUUCUGGCUUCGUUUAUGGUCUUCAUUAAAAGUAUAAGCCUAACUUUGUCGCUAGUCCUAAGGAGAAACCUUUAACCACAAAGUUUUUAUCAUUGAAGACA	0.361
UCCCCGUGAAGGAGAGCCCUUCAUUUGGAGAUUAUGUUCUUUCGGGGAGAGGCUGAGGACUUAAAAUAUUCCUGCAUUUGUGAAAUGAUGGUGAAAGCACUGCUGCCCAG	0.348
UCCUAACCCAUUUCAUCUCGGUUCUGUAUGGGUUUUUCCCGUGCAUGGAAGGGAGGCAGCUCAGGGACCACCAUUGUGGAGCCUUUGAGACCUCUCUGAUUCAGAAACAC	0.814
AGGGAAGCAUUCAUGGUCCUCUGUUAUCAGCAGGGGUUUAUGUCACUUGCUGUCCGGUUUCCUAGGGGCUUCCUGUGCCCCUUCCCCAGCUAUCCUCCAGGUGGCUAGGG	0.251
AAGAACUGUUUGCAUAAUUUUCUGAAUUUUGAGCACUUUGUGCUAUAUAAGGACCCAUAUUUAAGCUUUGUGUGCAGUAAGAAAGUGUAAAGCCAAUUCCAGUGUUGGAC	1.34

Study 5
Target: Interferon regulatory factor 3, full length, phosphomimetic (IRF3, Homo sapiens, UniProt Q14653, residues 1-427, S386D/S396D/S398D/S402D/T404D/S405D)
Chain of UniProt Q14653 (whole entry, unmodified, looked up): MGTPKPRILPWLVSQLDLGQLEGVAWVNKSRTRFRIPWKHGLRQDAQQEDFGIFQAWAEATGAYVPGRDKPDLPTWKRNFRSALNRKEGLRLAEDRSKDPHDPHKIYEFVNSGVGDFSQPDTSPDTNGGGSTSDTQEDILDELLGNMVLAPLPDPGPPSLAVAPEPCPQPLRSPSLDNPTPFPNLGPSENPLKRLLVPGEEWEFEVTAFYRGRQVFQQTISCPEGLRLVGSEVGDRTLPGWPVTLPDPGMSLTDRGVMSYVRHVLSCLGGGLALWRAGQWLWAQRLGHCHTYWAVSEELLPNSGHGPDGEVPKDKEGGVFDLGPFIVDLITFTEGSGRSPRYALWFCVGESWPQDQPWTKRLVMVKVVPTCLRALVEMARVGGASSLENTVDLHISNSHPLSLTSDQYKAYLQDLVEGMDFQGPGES
Technique: protein-binding microarray
Molecule type: double-stranded DNA, one strand shown
Matrix: in vitro
Tested at: 2540 nM top
Notes: 60-bp whole probe
With: salmon DNA 0.4 mg/ml
Baseline: random background probes
Reading: higher = stronger binding
Shared flanks, not repeated: GCCTAGCAC … GTCTTGATTCGCTTGACGCTGCTG
Sequence	fitted relative affinity [z-score]
TCATCTGTGCCTTTTTTACTGTGCTAG	1.45
GACGGACTGGGACTGGGTACGTGCTAG	-0.799
TTAGAACTGTGTATCGATTAGTGCTAG	0.148
TCAAGACTCATAATGGCACTGTGCTAG	-0.441
GTGTTTCTCAACCATTTTGTTGTGCTA	1.88
TGAGATATCAGTATCGATTAGTGCTAG	1.79
TTAGGAATGGGTCTCGGTTAGTGCTAG	-0.45
TTAGATATCGGGTTTCGATGAGTGCTA	1.03
TTAGGACTGGACACTGGGGTAGTGCTA	-0.864
TAAGGTATCGGTTTCGGTTAGTGCTAG	8.72
TCAGTTTTACTTTCTATACTGTGCTAG	5.3
TCACCATTAAATTTTAAACTGTGCTAG	0.136
GACGATAGCGGGTATCGAGACGTGCTA	-0.549
GACGGTATCGGTCTGGGGACGTGCTAG	2.66
TCATCTTCAGGTTCTCCCACTGTGCTA	1.13
TATAGGTTGTTTCTAATATTGTGCTAG	1.04
TTAGTTTTCGGTCTCGGTTAGTGCTAG	6.12
GACGGACTGCTACTGCTGAAGTGCTAG	-0.593
GGGCATTTAGAAAATGGAAATGTGCTA	-0.244
GCAACATTCACCATGGCTAGGTGCTAG	0.586
TTAGGTATCCTTCTCCTGTAGTGCTAG	7.3
TCAAAGTTCTTTTTTTCACTGTGCTAG	0.912

Study 6
Target: ABI1, truncated, D143A, DHFR fusion (Arabidopsis thaliana, UniProt P49597)
Technique: DHFR PCA, dose-response
Matrix: yeast
Notes: Hill fit, mean, not affinity
With: (+)-ABA, dose series
Reading: lower = more sensitive
Starting sequence: PYL1, truncated, DHFR fusion (Arabidopsis thaliana, UniProt Q8VZS8); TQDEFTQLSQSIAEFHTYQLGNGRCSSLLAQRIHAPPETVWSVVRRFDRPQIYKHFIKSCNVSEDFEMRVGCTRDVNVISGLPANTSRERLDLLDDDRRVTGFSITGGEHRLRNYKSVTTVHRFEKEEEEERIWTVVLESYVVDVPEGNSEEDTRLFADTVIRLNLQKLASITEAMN
Substitution	ABA EC50 [µM]
D65F	10.6
F5M	2.61
D48P	255
F124V	2.29
N85E	0.92
D95H	62.9
V62P	54.7
D153T	122
G102N	981
D65L	12.7
L20H	2.58
A35N	279
V44K	301
K58E	9.01
S9W	5.54
H34K	4.21
R46P	184
T120V	752
R49F	19.8

Some of these lines once more (study 5):
Sequence	fitted relative affinity [z-score]
TTAGAACTGTGTATCGATTAGTGCTAG	0.148
TCAAGACTCATAATGGCACTGTGCTAG	-0.441
GTGTTTCTCAACCATTTTGTTGTGCTA	1.88
TGAGATATCAGTATCGATTAGTGCTAG	1.79
TTAGGAATGGGTCTCGGTTAGTGCTAG	-0.45
TTAGATATCGGGTTTCGATGAGTGCTA	1.03
TTAGGACTGGACACTGGGGTAGTGCTA	-0.864
TAAGGTATCGGTTTCGGTTAGTGCTAG	8.72
TCAGTTTTACTTTCTATACTGTGCTAG	5.3
TCACCATTAAATTTTAAACTGTGCTAG	0.136
GACGATAGCGGGTATCGAGACGTGCTA	-0.549
GACGGTATCGGTCTGGGGACGTGCTAG	2.66
TCATCTTCAGGTTCTCCCACTGTGCTA	1.13
TATAGGTTGTTTCTAATATTGTGCTAG	1.04
TTAGTTTTCGGTCTCGGTTAGTGCTAG	6.12
